Measurements pooled from the literature.
Compare with care: the assays were run in different laboratories. “And” joins repeats or separate records; there may be more than shown. ± marks the error that the study gave.

| Compound | cell line | assay | setting | how to read | quantity | value |
| --- | --- | --- | --- | --- | --- | --- |
| CC(=O)NCCCN(C)CCCNc1cccc2c1C(=O)c1cccc(NCCCN(C)CCCNC(C)=O)c1C2=O | SAS | RNA-Seq, measured: SYNGR2 mRNA | 1 µM, 24 h | reference: untreated cells | log2 fold change | -0.313 |
| Cc1ccc2[c](c1)[Au-]([Cl])([Cl])[n+]1ccccc1-2 | A-375 | Incucyte | 2 µM, 6 days, no selenium supplementation |  | maximum confluency | 64% |
| Cc1cc(Cl)cc(-c2ccnc3cc(CN4C(=O)C5C(C4=O)C5(C)C)sc23)c1C[C@@H]1CNCCO1 (some centres unmarked) | CHP-212 parental | PI flow cytometry | 0.3 µM, 24 h |  | S phase cells | 17.6% |
| Cn1ncc(-c2ccc3c(=O)[nH]nc(CN)c3c2)c1-c1c(F)c(Cl)cc(OC2CC2)c1C#N | SU-DHL-1 | cell viability, inhibitor, CellTiter-Glo | 120 h, baseline-subtracted |  | IC50 | 20 nM |
| Cc1cc(C)nc(SCC(=O)Nc2ncc(Cc3cccc4ccccc34)s2)n1 | PC-3M-luc | colony formation, colony forming | 25 µM |  | inhibition | 4.3 ± 0.4% |
| Cc1ncsc1-c1ccc(C(C)NC(=O)C2CC(O)CN2C(=O)C(NC(=O)CCCCCCCCCCN2CCCC(Nc3ncc(Cl)c(Nc4ccccc4S(=O)(=O)C(C)C)n3)C2)C(C)(C)C)cc1 (centres unmarked) | 22Rv1 | RNA-seq, measured: POLR1A mRNA | concentration not given | reference: DMSO | log2 fold change | -1.19 |
| O=C(Nc1ccc(Sc2ccc3c(/C=C/c4ccccn4)n[nH]c3c2)cc1)c1ccco1 | Ba/F3 TEL-VEGFR1 | cell growth, CCK-8 |  |  | GI50 | 2700 nM |
| CC(C)(C)c1cc(-c2ccc3cccnc3n2)nc(-c2ccc3cccnc3n2)c1.[Cl-].[Cl-].[Ru+2].c1cnc2c(c1)ccc1cccnc12 | A-375 | resazurin | added: light 733 nm, 100 J/cm2 | reference: dark EC50 over light EC50 | phototoxicity index | 1 |
| CC#CC#C/C=C1/O[C@@]2(CCCCO2)[C@@H](O)[C@@H]1OC(C)=O | RAW264.7 | Western blot | concentration not given, added: LPS |  | iNOS protein level | decreased |
| CC(C)(C)c1cc(-c2ccc3cc4ccccc4nc3n2)nc(-c2ccc3cc4ccccc4nc3n2)c1.[Cl-].[Cl-].[Ru+2].c1ccc2cc3nc4c5cccnc5c5ncccc5c4nc3cc2c1 | A-375 | resazurin | added: light 633 nm, 20 mW, 100 J/cm2 |  | EC50 | 24300 nM |
| CC(=O)OC[C@H]1O[C@@H](n2cc(CSc3nc4ccccc4n3Cc3cn([C@@H]4O[C@H](COC(C)=O)[C@@H](OC(C)=O)C(OC(C)=O)[C@H]4OC(C)=O)nn3)nn2)[C@H](OC(C)=O)C(OC(C)=O)[C@@H]1OC(C)=O (stereo in doubt) | Caco-2 | MTT | 500 ppm |  | cytotoxicity | 91.4% |
| Cn1ncc2cc(-c3cncc(Cl)c3N3CCC4(CCNC4=O)CC3)ccc21 | LS174T | gene expression, microarray, measured: BHLHE41 mRNA | concentration not given, 4 h | reference: untreated cells | log2 fold change | 1.39 |
| Cc1ncsc1-c1ccc(CNC(=O)[C@@H]2C[C@@H](O)CN2C(=O)[C@@H](NC(=O)CN2CCN(C3CN(CCNC(=O)C[C@@H]4N=C(c5ccc(Cl)cc5)c5c(sc(C)c5C)-n5c(C)nnc54)C3)CC2)C(C)(C)C)cc1 | Sf9 | global proteomics, measured: XP_035429406.2 XP_035429407.2 XP_035429409.2 | 10 µM | reference: DMSO | log2 fold change | -1.75 |
| CN(C)c1ccc(-n2cc(COC(=O)[C@]3(C)C=C(C(=O)OC(C)(C)C)C(=O)CC3)nn2)cc1 | AP-1 reporter HEK293 | AP-1 reporter gene, luciferase reporter | 3 µM, 6 h, added: PMA 6 ng/mL | higher = more transcription | luminescence | 4350 a.u. |
| CNS(=O)(=O)Nc1nccc(Cc2c(C)c3ccc(Oc4ncccc4F)cc3oc2=O)c1F | HEL 92.1.7 | cell viability, CellTiter-Glo | 7 days |  | IC50 | > 1000 nM |
| CCOc1cncc(-c2ccc(NC(=O)C3(c4ccnc(NS(=O)(=O)C5CC5)n4)CCOCC3)nc2)n1 | Caco-2 | cell growth or viability, ATP luminescence | 72 h |  | IC50 | 250 nM |
| CC(C)C[C@@H]1NC(=O)[C@H](CC(C)C)NC(=O)[C@H](Cc2c[nH]c3ccccc23)NC(=O)[C@H](CO)NC(=O)[C@H](Cc2c[nH]c3ccccc23)NC(=O)[C@@H]2CCCN2C(=O)[C@H](CC(C)C)NC(=O)[C@H](Cc2c[nH]cn2)NC(=O)[C@@H]2CCCN2C(=O)[C@H](CC(N)=O)NC(=O)[C@H](C)NC(=O)[C@H](Cc2ccc(O)cc2)NC(=O)[C@H](CS)NC(=O)[C@H](CCCCNC(=O)CN2CCN(CC(=O)O)CCN(CC(=O)O)CCN(CC(=O)O)CC2)NC1=O [lutetium-177 labelled] | 4T1 | flow cytometry | 0.4 Bq/cell, 48 h |  | live cells | 68% |
| COC(=O)c1cc(NC2=NC(=O)C(=Cc3ccc(C)cc3)S2)ccc1OC(C)=O | MCF7 | GC-MS, measured: L-Lysine | 1 µM | reference: DMSO | metabolite level | 0.52 fold change |
| COc1ccc(NC(=O)c2ccc3[nH]c(-c4ccc(N(C)C)cc4)nc3c2)cn1 | HCT116 | IncuCyte | concentration not given, 24 h |  | dead cell to confluence ratio | 466 and 131 and 236 |
| CN1CCCNC(=O)c2cccc(c2)C(=O)NCCCN(C)CCCNc2cccc3c2C(=O)c2cccc(c2C3=O)NCCC1 | SAS | RNA-Seq, measured: TTC31 mRNA | 1 µM, 6 h | reference: untreated cells | log2 fold change | -1.17 |
| CCCCCCCCCCCCCCCCCCOc1ccccc1CCOP(=O)([O-])OCC[N+](C)(C)C | NCI-H322M | SRB | 10 µM |  | growth inhibition | < 0% |
| CCN(CC)CC(=O)Nc1cccc(-n2cc(-c3ccc4ccc(-c5cn(-c6cccc(NC(=O)CN(CC)CC)c6)nn5)cc4c3)nn2)c1 | RCC4 | PCR angiogenesis array, measured: TIMP1 | 5 x IC50, 6 h, normoxia | reference: untreated | fold regulation | -1.22 fold |
| CCN(C(=O)c1cc(F)ccc1Oc1nncnc1N1CCC2(C1)CN([C@H](CCCN(C)CCOC)C(C)C)C2)C(C)C | Caco-2 | cell growth or viability | 7 days |  | GI50 | > 10000 nM |
| CC(C)c1ccc(N(C)c2ccc3c(c2)OCC[C@H]3CNc2cnccc2C(=O)O)cc1 | T.T | cell growth, CellTiter-Glo | 7 days |  | IC50 | 6.75 nM |
| [Cl-].[Cl-].[Ru+2].c1cc(-c2ccc3cccnc3n2)nc(-c2ccc3cccnc3n2)c1.c1ccc2cc3nc4c5cccnc5c5ncccc5c4nc3cc2c1 | A-375 | resazurin | added: light 733 nm, 100 J/cm2 | reference: dark EC50 over light EC50 | phototoxicity index | 3 |
| Cc1cc(/C=C/c2ccc(O)c(O)c2)[nH]n1 | A549 | PI staining flow cytometry | 50 µM, 48 h |  | cells in pre-G1 phase | 5.02% |
